Experimental data pooled from the literature.
± gives the spread as reported.
HCRTR1: Orexin/Hypocretin receptor type 1 (HCRTR1, Homo sapiens, UniProt O43613)
Chain of UniProt O43613 (whole entry, looked up): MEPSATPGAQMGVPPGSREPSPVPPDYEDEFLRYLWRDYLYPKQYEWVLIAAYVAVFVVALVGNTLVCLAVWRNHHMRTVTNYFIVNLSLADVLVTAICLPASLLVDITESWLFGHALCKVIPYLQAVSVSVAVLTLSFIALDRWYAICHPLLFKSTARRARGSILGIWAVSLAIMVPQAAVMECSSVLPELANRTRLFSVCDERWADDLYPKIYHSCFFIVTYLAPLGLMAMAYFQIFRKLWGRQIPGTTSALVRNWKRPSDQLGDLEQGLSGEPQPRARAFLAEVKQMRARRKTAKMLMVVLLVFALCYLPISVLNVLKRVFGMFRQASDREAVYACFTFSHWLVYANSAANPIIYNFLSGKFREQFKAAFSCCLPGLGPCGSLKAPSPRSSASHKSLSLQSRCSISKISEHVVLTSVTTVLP

SMILES | target or system | assay | system | conditions | quantity | result
CCCOc1ccc([C@H]2CNC(=O)N2c2ccc3[nH]cnc3c2)cc1 |  |  | human, plasma | oral, 50 mg, single dose, fasted | AUC(0-inf) | 355 ng·h/mL
O=C1N=C(N2CCOCC2)CN1c1ccc(Cl)cc1 |  |  | beagle dog, male, plasma | oral, 30 mg/kg, tablets, fed | AUC(0-inf) | 64500 ng·h/mL
CCCC[C@H](NC(C)=O)C(=O)N[C@H]1CCC(=O)NC[C@@H](C(=O)N[C@@H](Cc2c[nH]c3ccccc23)C(N)=O)NC(=O)[C@H](CCCNC(=N)N)NC(=O)[C@@H](Cc2ccccc2)NC(=O)[C@H](Cc2c[nH]cn2)NC1=O |  |  | beagle dog, female, plasma | subcutaneous, 1.5 mg/kg daily, day 28 | Cmax | 96 ng/mL
COc1cc2c(cc1OC)C(CC(C)C)N(CC(=O)NCc1ccccc1)CC2 (stereo not drawn) | HCRTR1 | calcium signal, antagonist, fluorescence |  |  | Kb | > 10 µM
CC(C)NC[C@@H](C(=O)N1CCN(c2ncnc3c2[C@H](C)C[C@H]3O)CC1)c1ccc(Cl)cc1 |  |  | human, hepatic impairment Moderate (Child-Pugh), plasma | oral, 100 mg single, geometric mean | AUC(0-inf) | 808 ng·h/mL
CO[C@H]1C[C@@H]2CC[C@@H](C)[C@@](O)(O2)C(=O)C(=O)N2CCCC[C@H]2C(=O)O[C@H]([C@H](C)C[C@@H]2CC[C@@H](O)[C@H](OC)C2)CC(=O)[C@H](C)/C=C(\C)[C@@H](O)[C@@H](OC)C(=O)[C@H](C)C[C@H](C)/C=C/C=C/C=C/1C |  |  | human, whole blood | oral, 25 mg, without grapefruit juice | AUC(0-inf) | 1450 ng·h/mL
COc1cc2c(cc1OC)C(Cc1ccc(OS(=O)(=O)c3ccc(C)cc3)c(OC)c1)N(CC(=O)NCc1ccccc1)CC2 (stereo not drawn) | HCRTR1 | calcium signal, antagonist, fluorescence |  |  | Kb | > 10 µM
CNc1nc(Nc2ccc(-n3cnc(C)n3)c(OC)c2)nc2c1CC[C@H]2c1ccc(F)cc1 |  |  | human, plasma | oral, 30 mg, single dose, healthy volunteers | AUC(0-inf) | 982 ng·h/mL
Cc1ccc(NC(=O)c2ccc(CN3CCN(C)CC3)cc2)cc1Nc1nccc(-c2cncc(-c3oncc3C)c2)n1 |  |  | older healthy human adults, plasma | oral, 250 mg single dose, fed, mean | AUC(0-inf) | 214000 ng·h/mL
C=CC(=O)Nc1cc(Nc2ncc(C(=O)OC(C)C)c(-c3cn(C)c4ccccc34)n2)c(OC)cc1N(C)CCN(C)C |  |  | human, fasted | oral, 120 mg single dose, arithmetic mean | AUC(0-inf) | 494 ng·h/mL
CC(C)[C@H](NC(=O)[C@@H]1CCCN1C(=O)[C@H](CCCNC(=N)N)NC(=O)[C@H](CS)NC(=O)[C@H](Cc1c[nH]c2ccccc12)NC(=O)[C@H](CCCNC(=N)N)NC(=O)[C@@H](Cc1ccccc1)NC(=O)[C@H](Cc1c[nH]cn1)NC(=O)[C@H](CCC(=O)O)NC(=O)[C@H](CS)NC(=O)[C@H](CS)NC(=O)[C@H](CCCCN)NC(=O)[C@@H]1CC(=O)N[C@@H](CCCNC(=N)N)C(=O)N[C@@H](C)C(=O)N[C@@H](CC(=O)O)C(=O)N[C@H](Cc2ccc(O)cc2)C(=O)N1)C(N)=O [technetium-99m labelled] |  |  | C57 mice, intestines | iv, 0.037 MBq, 2 h | tissue uptake | 1.5 ± 0.86 %ID
C=CC(N)CCC(=O)O (stereo not drawn) |  |  | male Sprague-Dawley rat, plasma | oral, 10 mg/kg, formulation 9, together with: low-fat infant formula 1500 mg/kg | AUC(0-inf) | 16500 ± 267 ng·h/mL

Some of these lines once more:
SMILES | target or system | assay | system | conditions | quantity | result
C=CC(N)CCC(=O)O (stereo not drawn) |  |  | male Sprague-Dawley rat, plasma | oral, 10 mg/kg, formulation 9, together with: low-fat infant formula 1500 mg/kg | AUC(0-inf) | 16500 ± 267 ng·h/mL
COc1cc2c(cc1OC)C(CC(C)C)N(CC(=O)NCc1ccccc1)CC2 (stereo not drawn) | HCRTR1 | calcium signal, antagonist, fluorescence |  |  | Kb | > 10 µM
